Assay results from different studies.
Parts stem from different laboratories: compare values within a part only.
UniProt Q9UL54, sequence (whole entry, looked up): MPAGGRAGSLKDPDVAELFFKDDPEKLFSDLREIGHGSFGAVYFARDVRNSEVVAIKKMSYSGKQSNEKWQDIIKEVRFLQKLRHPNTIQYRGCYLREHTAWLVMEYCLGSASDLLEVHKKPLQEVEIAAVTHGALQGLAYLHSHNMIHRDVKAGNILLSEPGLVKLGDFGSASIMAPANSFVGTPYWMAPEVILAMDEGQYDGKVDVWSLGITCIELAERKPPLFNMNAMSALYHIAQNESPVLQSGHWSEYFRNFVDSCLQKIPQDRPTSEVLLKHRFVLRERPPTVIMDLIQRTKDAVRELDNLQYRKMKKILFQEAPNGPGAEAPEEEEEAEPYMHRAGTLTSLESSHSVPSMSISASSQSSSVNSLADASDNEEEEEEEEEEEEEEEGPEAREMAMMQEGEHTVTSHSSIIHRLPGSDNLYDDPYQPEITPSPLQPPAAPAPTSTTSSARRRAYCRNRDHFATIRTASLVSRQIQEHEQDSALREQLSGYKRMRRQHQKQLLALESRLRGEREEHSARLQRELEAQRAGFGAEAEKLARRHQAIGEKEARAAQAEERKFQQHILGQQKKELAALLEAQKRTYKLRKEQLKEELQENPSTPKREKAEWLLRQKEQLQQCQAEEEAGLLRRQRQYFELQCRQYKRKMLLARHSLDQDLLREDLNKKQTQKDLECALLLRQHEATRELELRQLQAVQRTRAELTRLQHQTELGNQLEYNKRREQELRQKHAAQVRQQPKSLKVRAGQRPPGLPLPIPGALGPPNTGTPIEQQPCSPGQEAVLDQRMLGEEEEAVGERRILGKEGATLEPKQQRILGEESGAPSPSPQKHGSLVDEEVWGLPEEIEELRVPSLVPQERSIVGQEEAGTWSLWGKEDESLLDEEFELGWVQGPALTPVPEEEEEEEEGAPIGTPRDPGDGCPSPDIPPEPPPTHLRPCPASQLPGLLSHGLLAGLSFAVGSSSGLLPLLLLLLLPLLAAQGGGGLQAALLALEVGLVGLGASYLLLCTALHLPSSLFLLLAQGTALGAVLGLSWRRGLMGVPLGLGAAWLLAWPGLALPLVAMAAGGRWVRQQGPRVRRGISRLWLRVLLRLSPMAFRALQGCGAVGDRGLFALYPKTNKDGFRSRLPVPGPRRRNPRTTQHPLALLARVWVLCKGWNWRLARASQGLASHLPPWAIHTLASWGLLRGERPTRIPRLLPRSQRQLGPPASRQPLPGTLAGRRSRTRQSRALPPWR
UniProt O75582, sequence (whole entry, looked up): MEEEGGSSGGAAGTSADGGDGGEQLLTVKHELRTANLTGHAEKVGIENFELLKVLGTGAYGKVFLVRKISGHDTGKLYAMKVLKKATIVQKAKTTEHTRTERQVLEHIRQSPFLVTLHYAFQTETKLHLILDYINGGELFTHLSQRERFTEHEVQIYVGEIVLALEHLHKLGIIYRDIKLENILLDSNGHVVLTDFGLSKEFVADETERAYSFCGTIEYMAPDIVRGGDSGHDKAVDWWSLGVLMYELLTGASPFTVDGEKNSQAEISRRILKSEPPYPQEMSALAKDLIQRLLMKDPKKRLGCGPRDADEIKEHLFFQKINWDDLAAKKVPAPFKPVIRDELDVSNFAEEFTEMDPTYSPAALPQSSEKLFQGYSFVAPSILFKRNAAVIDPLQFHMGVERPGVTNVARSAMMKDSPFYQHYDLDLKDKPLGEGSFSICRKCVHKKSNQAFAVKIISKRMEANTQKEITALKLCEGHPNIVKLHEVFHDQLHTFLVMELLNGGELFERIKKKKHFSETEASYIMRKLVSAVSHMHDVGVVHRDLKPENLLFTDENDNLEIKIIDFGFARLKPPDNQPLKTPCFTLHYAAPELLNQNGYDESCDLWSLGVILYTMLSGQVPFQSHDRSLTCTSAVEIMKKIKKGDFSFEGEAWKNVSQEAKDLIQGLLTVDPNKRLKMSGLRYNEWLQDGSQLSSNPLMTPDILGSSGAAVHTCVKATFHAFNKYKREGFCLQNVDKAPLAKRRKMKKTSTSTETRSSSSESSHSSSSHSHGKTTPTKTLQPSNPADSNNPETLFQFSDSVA
UniProt Q04912, sequence (whole entry, looked up): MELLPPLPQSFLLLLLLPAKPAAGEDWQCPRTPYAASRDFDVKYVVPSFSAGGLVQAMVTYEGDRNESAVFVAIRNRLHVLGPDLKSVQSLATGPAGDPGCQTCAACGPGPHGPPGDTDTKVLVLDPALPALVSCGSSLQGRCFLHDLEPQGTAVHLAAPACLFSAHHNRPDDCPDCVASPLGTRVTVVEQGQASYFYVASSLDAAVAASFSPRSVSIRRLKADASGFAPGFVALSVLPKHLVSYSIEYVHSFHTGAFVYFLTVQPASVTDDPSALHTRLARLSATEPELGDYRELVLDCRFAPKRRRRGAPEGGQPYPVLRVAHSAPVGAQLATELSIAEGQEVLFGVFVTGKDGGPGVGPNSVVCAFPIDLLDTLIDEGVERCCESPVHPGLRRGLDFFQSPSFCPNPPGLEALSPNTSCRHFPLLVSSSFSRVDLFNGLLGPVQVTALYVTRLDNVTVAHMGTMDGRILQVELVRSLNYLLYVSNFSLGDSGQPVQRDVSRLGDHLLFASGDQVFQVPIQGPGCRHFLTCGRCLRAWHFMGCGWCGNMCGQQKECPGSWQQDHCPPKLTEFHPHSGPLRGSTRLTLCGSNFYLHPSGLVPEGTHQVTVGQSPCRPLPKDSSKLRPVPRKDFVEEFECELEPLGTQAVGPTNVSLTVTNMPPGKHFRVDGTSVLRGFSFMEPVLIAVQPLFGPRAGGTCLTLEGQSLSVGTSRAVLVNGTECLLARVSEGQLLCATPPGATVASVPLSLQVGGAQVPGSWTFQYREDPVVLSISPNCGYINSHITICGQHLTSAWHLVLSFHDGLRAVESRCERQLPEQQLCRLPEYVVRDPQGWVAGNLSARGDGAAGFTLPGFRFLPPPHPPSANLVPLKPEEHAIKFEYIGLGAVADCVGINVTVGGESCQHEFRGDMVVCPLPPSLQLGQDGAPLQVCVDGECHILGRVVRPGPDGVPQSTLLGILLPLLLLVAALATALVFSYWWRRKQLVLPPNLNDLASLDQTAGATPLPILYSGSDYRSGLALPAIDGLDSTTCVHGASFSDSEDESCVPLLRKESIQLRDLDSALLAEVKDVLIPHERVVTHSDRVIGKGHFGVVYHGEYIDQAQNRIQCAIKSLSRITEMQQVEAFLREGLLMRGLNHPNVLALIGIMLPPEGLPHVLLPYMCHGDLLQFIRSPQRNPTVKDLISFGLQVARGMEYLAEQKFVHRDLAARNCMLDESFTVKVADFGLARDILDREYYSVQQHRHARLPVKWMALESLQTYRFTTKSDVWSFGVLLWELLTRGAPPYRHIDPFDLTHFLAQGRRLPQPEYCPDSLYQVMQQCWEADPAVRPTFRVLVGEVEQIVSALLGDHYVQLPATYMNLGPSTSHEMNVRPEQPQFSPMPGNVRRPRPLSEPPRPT
UniProt P10721, sequence (whole entry, unmodified, looked up): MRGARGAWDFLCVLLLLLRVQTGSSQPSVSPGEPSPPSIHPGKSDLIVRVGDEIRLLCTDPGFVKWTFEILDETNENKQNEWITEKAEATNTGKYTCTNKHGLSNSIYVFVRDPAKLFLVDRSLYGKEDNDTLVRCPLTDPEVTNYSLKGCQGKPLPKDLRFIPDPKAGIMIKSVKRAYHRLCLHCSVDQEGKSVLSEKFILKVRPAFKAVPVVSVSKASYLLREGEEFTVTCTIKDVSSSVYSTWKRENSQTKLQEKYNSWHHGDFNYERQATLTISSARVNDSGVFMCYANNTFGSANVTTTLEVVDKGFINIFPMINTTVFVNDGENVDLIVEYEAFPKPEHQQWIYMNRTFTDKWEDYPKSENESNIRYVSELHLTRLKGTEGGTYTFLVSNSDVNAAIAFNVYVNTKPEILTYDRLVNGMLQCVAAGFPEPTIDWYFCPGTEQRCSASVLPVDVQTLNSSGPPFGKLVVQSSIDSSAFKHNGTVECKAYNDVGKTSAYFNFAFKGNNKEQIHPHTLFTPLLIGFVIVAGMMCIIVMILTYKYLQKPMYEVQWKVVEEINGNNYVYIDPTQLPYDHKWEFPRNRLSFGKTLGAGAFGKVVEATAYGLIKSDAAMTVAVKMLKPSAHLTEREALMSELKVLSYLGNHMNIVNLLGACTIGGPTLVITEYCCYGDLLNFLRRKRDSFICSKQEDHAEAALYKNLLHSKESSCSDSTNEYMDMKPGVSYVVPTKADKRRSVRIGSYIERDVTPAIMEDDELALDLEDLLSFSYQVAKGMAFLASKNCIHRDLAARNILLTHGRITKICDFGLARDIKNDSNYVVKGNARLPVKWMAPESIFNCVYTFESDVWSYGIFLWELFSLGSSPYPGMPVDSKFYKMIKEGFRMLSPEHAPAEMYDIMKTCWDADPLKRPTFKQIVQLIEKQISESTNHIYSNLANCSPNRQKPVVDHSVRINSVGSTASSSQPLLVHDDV
UniProt O24409, sequence (whole entry, looked up): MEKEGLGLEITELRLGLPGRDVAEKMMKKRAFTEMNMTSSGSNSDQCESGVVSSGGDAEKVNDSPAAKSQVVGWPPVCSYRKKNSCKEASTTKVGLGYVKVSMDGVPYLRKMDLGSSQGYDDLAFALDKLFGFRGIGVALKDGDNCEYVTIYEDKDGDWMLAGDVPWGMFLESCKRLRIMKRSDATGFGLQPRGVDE

Sample 1 — method: RNA Bind-n-Seq; molecule type: RNA; medium: in vitro; tested at: 200 nM; notes: whole 134-nt RNA, ends assumed; together with: 150 mM LiCl; reference: input library; direction: higher = stronger binding; each molecule: 7-deaza-guanosine replaces G
Target: Ras GTPase-activating protein-binding protein 1, full length (G3BP1, Homo sapiens, UniProt Q13283)
UniProt Q13283, sequence (whole entry, looked up): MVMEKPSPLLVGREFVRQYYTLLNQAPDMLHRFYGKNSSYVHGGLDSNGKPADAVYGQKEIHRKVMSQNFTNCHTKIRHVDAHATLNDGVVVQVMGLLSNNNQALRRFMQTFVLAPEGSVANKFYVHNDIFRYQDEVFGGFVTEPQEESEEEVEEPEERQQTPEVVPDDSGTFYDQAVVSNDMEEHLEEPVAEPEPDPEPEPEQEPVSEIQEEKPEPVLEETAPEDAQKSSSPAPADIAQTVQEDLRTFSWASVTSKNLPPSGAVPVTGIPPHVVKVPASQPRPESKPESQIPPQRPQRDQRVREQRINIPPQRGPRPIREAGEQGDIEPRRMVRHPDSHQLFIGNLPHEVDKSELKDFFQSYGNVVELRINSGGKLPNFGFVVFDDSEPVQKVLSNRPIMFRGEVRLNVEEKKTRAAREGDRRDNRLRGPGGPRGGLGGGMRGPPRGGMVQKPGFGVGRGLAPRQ
With `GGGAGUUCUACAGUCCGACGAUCGUCCUGUGCUACACAUCGUAUGUACCGAAUCGGGGUUUGGGGUGGGGAAAAAAAGGGGAAAGUAUUAUGUUACGCCGUUCGGAUCUGCACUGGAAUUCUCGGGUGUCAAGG` the log2 enrichment was -0.029.
`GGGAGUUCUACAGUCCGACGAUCCUCAAGUCCUGUGCUACACAUCGUAUGUACCGAAUCGGGAAGGAAGGGGAAGGGAAAGUAUUAUGUUACGCCGUUCGGAUCUGCACUUCCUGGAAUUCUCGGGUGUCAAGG` gave a log2 enrichment of -0.267.
With `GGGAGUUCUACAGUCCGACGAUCUCCUGUGCUACACAUCGUAUGUACCGAAUCGGGGUUUUUGGGGUUUUUGGGGUUUUUGGGAAAGUAUUAUGUUACGCCGUUCGGAUCUGCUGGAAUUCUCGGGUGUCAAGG` the log2 enrichment was 1.08.
For `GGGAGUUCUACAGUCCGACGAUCUCAAGUCCUGUGCUACACAUCGUAUGUACCGAAUCGGUUUGGAGGUUUUUUUGGAAAGUAUUAUGUUACGCCGUUCGGAUCUGCACUUCCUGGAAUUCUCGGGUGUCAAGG`, the log2 enrichment was 0.206.
The log2 enrichment of `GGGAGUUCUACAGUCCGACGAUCUGGGAGGUGGAUUUUGUUUAUUUUUUUAGCUCAUUUCCAGGGGUGGGAAUUUUUUUUUAAUAGGUGUCAUGAAUAAAGUUGUUUUUGAAAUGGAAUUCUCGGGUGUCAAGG` is reported as -0.124.
For `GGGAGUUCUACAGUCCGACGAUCAGUCCUGUGCUACACAUCGUAUGUACCGAAUCGGGAAAAAGGGUUUUUUUGGGUGGGAAAGUAUUAUGUUACGCCGUUCGGAUCUGCACUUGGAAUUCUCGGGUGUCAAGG`, the log2 enrichment was -1.81.
`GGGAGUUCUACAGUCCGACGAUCUUAGAAGAAGUGGAAAGGAAAAAACGCCAAAGGGAGUUGGAAAUUGAAGAACGAGAACGGCGUAGAGAGGAAGAGAGAAGACUUGGCGAUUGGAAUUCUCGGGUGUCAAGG` has a log2 enrichment of -0.385.
`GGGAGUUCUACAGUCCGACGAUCCCUGUGCUACACAUCGUAUGUACCGAAUCGGGGAAAAAGGGGUUUUUUUGGGGUUUGGGGAAAGUAUUAUGUUACGCCGUUCGGAUCUGCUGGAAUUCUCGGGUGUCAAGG` gave a log2 enrichment of -1.55.

Sample 2 — read-out: enzyme activity; action: inhibitor; tested at: 0.5 µM; reference: control
Structure (SMILES): CN(C)S(=O)(=O)c1ccc2c(c1)/C(=C/c1cc3c([nH]1)CCCC3)C(=O)N2
The remaining activity was 86% (Tyrosine-protein kinase FRK (FRK, Homo sapiens, UniProt P42685)).
For Rhodopsin kinase GRK7 (GRK7, Homo sapiens, UniProt Q8WTQ7): remaining activity read 82.3%.
For Ephrin type-A receptor 3 (EPHA3, Homo sapiens, UniProt P29320): remaining activity read 98.6%.
The remaining activity was 34.7% (Tyrosine-protein kinase Lck (LCK, Homo sapiens, UniProt P06239)).
For Tyrosine-protein kinase ABL2 (ABL2, Homo sapiens, UniProt P42684): remaining activity read 56.8%.
For Casein kinase I isoform gamma-3 (CSNK1G3, Homo sapiens, UniProt Q9Y6M4): remaining activity read 101%.
For Macrophage-stimulating protein receptor (MST1R, Homo sapiens, UniProt Q04912): remaining activity read 101%.
Serine/threonine-protein kinase ULK2 (ULK2, Homo sapiens, UniProt Q8IYT8) — remaining activity: 26.3%.
For Serine/threonine-protein kinase TAO2 (TAOK2, Homo sapiens, UniProt Q9UL54): remaining activity read 89.6%.
For Serine/threonine-protein kinase A-Raf (ARAF, Homo sapiens, UniProt P10398): remaining activity read 105%.
Serine/threonine-protein kinase Nek1 (NEK1, Homo sapiens, UniProt Q96PY6) — remaining activity: 93.1%.
The remaining activity was 90.7% (Serine/threonine-protein kinase Nek6 (NEK6, Homo sapiens, UniProt Q9HC98)).
For Ribosomal protein S6 kinase alpha-2 (RPS6KA2, Homo sapiens, UniProt Q15349): remaining activity read 52.8%.
For Casein kinase I isoform gamma-2 (CSNK1G2, Homo sapiens, UniProt P78368): remaining activity read 93.8%.

Sample 3 — Molecule: B1 (IAA4); method: two-hybrid; reference: out of 4 tests; direction: higher = firmer interaction
B1: IAA4 (Arabidopsis thaliana, UniProt P33077); chain MEKVDVYDELVNLKATELRLGLPGTEETVSCGKSNKRVLPEATEKEIESTGKTETASPPKAQIVGWPPVRSYRKNNVQTKKSESEGQGNYVKVSMDGAPYLRKIDLTMYKQYPELMKSLENMFKFSVGEYFEREGYKGSDFVPTYEDKDGDWMLVGDVPWEMFVSSCKRLRIMKGSEVKGLGCGGL
For ARF6 790-935 (Arabidopsis thaliana, UniProt Q9ZTX8): positive tests read 3.
It gave 2 for positive tests (IAA13 (Arabidopsis thaliana, UniProt Q38831)).
It gave 4 for positive tests (IAA12 (Arabidopsis thaliana, UniProt Q38830)).
The positive tests was 4 (IAA19 (Arabidopsis thaliana, UniProt O24409)).
It gave 0 for positive tests (ARF22 498-598 (Arabidopsis thaliana, UniProt Q9C8N7)).
The positive tests was 1 (ARF16 570-670 (Arabidopsis thaliana, UniProt Q93YR9)).
For ARF20 484-590 (Arabidopsis thaliana, UniProt Q9C7I9): positive tests read 0.
The positive tests was 0 (ARF12 500-593 (Arabidopsis thaliana, UniProt Q9XID4)).

Sample 4 — read-out: cell-free assay; method: competition with immobilised ligand; tested at: 1 µM
SMILES: O=C(O)[C@H]1[C@H](Cn2nnc3ccccc3c2=O)CC[C@@H]1C(=O)c1ccc(OCCC2CCOCC2)cc1
For Serine/threonine-protein kinase 26 (STK26, Homo sapiens, UniProt Q9P289): remaining binding read 87%.
For Epidermal growth factor receptor (EGFR, Homo sapiens, UniProt P00533, A750P/del747-749): remaining binding read 100%.
It gave 75% for remaining binding (Serine/threonine-protein kinase PLK1 (PLK1, Homo sapiens, UniProt P53350)).
For Dual specificity mitogen-activated protein kinase kinase 5 (MAP2K5, Homo sapiens, UniProt Q13163): remaining binding read 100%.
For Non-receptor tyrosine-protein kinase TYK2, JH1 (TYK2, Homo sapiens, UniProt P29597): remaining binding read 41%.
It gave 80% for remaining binding (Epidermal growth factor receptor (EGFR, Homo sapiens, UniProt P00533, del746-750)).
For Serine/threonine-protein kinase PLK4 (PLK4, Homo sapiens, UniProt O00444): remaining binding read 97%.
It gave 76% for remaining binding (Serine/threonine-protein kinase N2 (PKN2, Homo sapiens, UniProt Q16513)).
Mast/stem cell growth factor receptor Kit (KIT, Homo sapiens, UniProt P10721, V559D/V654A) — remaining binding: 100%.
For Inhibitor of nuclear factor kappa-B kinase subunit alpha (CHUK, Homo sapiens, UniProt O15111): remaining binding read 100%.
The remaining binding was 100% (Mitogen-activated protein kinase kinase kinase 2 (MAP3K2, Homo sapiens, UniProt Q9Y2U5)).
It gave 100% for remaining binding (Ribosomal protein S6 kinase alpha-5, N-terminal kinase domain (RPS6KA5, Homo sapiens, UniProt O75582)).
For Ephrin type-A receptor 8 (EPHA8, Homo sapiens, UniProt P29322): remaining binding read 100%.
For Epidermal growth factor receptor (EGFR, Homo sapiens, UniProt P00533, T790M): remaining binding read 77%.

Repeated from above (sample 4):
For Dual specificity mitogen-activated protein kinase kinase 5 (MAP2K5, Homo sapiens, UniProt Q13163): remaining binding read 100%.
For Non-receptor tyrosine-protein kinase TYK2, JH1 (TYK2, Homo sapiens, UniProt P29597): remaining binding read 41%.
It gave 80% for remaining binding (Epidermal growth factor receptor (EGFR, Homo sapiens, UniProt P00533, del746-750)).
